Measured values collected from several papers.
Compare with care: the assays were run in different laboratories. ± marks the error that the study gave.

Compound	target	test	setting	IC50
O=Cc1ccc(-c2ccc(O)cc2)c(C(=C2C=CC(=O)C=C2)c2ccc(O)cc2)c1C#Cc1ccc(O)cc1	3',5'-cyclic-AMP phosphodiesterase 4D (PDE4D, Homo sapiens, UniProt Q08499)	enzyme activity, inhibitor, fluorescence	–	0.29 µM
COC(=O)Cc1c(C)c2cc(Cl)c(OCC(N)=O)cc2oc1=O	Cyclin-dependent kinase 9 (CDK9, Homo sapiens, UniProt P50750)	enzyme activity, inhibitor, ATP luminescence	–	6 µM
C/C=C1\NC(=O)[C@H](C)NC(=O)[C@@H](NC(=O)[C@@H](Cc2ccc(O)cc2)NC(=O)[C@@H](NC(=O)/C(C)=C/C)C(C)C)[C@@H](C)OC(=O)[C@H](CC(C)C)NC(=O)[C@@H](CCC(=O)O)NC1=O	Chymotrypsin-like elastase family member 1 (CELA1, Sus scrofa, UniProt P00772)	inhibitor	–	1.41 ± 0.28 µM
Cc1ccc(CNC(=O)C(CCc2ccccc2)NC(=O)C(NC(=O)c2ccc(OCc3ccc(C(C)(C)C)cc3)cc2)C(C)O)cc1 (centres unmarked)	Proteasome subunit beta type-3/PSMB7 (Homo sapiens, UniProt P49720+Q99436)	inhibitor	–	> 100 µM
C/C(=N\NC(N)=S)c1c(O)c2ccccc2oc1=O	Serine/threonine-protein kinase mTOR (MTOR, Homo sapiens, UniProt P42345)	enzyme activity, inhibitor	–	1.39 µM
CC(C)S(=O)(=O)c1cccc(O)c(=O)c1O	Ribonuclease HI (rnhA, Escherichia coli, UniProt P0A7Y4)	enzyme activity, inhibitor	–	52 µM
CCC1Sc2ccc(S(=O)(=O)CCC(=O)Nc3cccc4ccccc34)cc2NC1=O (centres unmarked)	P2X purinoceptor 7 (P2rx7, Mus musculus, UniProt Q9Z1M0, A312V)	ion current, whole-cell patch clamp	–	0.306 ± 0.031 µM
N[C@@H](Cc1c[nH]c2c(OCc3ccccc3)cccc12)C(=O)O	Large neutral amino acids transporter small subunit 1 (SLC7A5, Homo sapiens, UniProt Q01650)	transporter uptake, inhibitor, radiometric	–	> 100 µM
COC(=O)C(CS)N1C(=O)c2cccc3c(N(C)C)ccc(c23)C1=O (centres unmarked)	Metallo-beta-lactamase type 2 (blaNDM-1, Klebsiella pneumoniae, UniProt C7C422)	enzyme activity, inhibitor	pH 7	9.5 µM
Cc1cc(C)c(S(=O)(=O)Nc2ccc3c(c2)nc(CCCCCCCN)n3Cc2ccccc2)c(C)c1	Nuclear receptor subfamily 1 group I member 2 (NR1I2, Homo sapiens, UniProt O75469)	ligand displacement, TR-FRET	–	0.719 µM
C[C@]12CC[C@@H]3c4ccc(OCc5ccccc5)cc4CC[C@H]3[C@@H]1[C@H](OCCCC(=O)O)CC2=O	17-beta-hydroxysteroid dehydrogenase type 1 (HSD17B1, Homo sapiens, UniProt P14061)	enzyme activity, inhibitor, radiometric	–	3.5 µM
N=C(N)NCCC[C@H](NC(=O)[C@H](CC(=O)O)NC(=O)[C@H](CC(N)=O)NC(=O)[C@H](CCCNC(=N)N)NC(=O)[C@@H]1CCCN1C(=O)[C@H](CCCCN)NC(=O)[C@H](CCCCN)NC(=O)[C@H](CCC(N)=O)NC(=O)[C@H](CC(=O)O)NC(=O)[C@@H](N)Cc1c[nH]c2ccccc12)C(=O)O	Neuropilin-1 (NRP1, Homo sapiens, UniProt O14786)	inhibitor, plate binding	1 h, 25 °C	28 µM
Oc1ccc(CCC(O)CC(O)CCc2ccc(O)cc2)cc1 (centres unmarked)	Amine oxidase [flavin-containing] A (Maoa, Rattus norvegicus, UniProt P21396)	enzyme activity, inhibitor	together with: 1 mM serotonin substrate	400 µM
CN(C)c1ccc2cc(S(=O)(=O)N3CC3C(N)=O)ccc2c1 (centres unmarked)	Protein disulfide-isomerase A3 (PDIA3, Homo sapiens, UniProt P30101)	enzyme activity, inhibitor, absorbance	pH 7.6	130 µM
